Published values gathered from unrelated publications.
Lines come from different studies, so protocols differ.
BRAF: Serine/threonine-protein kinase B-raf (BRAF, Homo sapiens, UniProt P15056)
BRAF V600E: Serine/threonine-protein kinase B-raf (BRAF, Homo sapiens, UniProt P15056, V600E)

Structure (SMILES)	target	assay	conditions	scale	remaining binding
Nc1ncc2c(n1)-c1c([nH]c3ccc(C4=CCOCC4)cc13)CCC2	BRAF	binding, competition with immobilised ligand	1 µM		100%
Cc1ccc(-c2c(/C=C(\C#N)C(=O)NC(C)C)n(CCCO)c3ncnc(N)c23)cc1	BRAF	cell-free assay, competition with immobilised ligand	1 µM		56%
C=CC(=O)N1CCCC(n2c(=O)c3ncccc3n(Cc3ccc(Oc4ccccc4)cc3)c2=O)C1 (stereo not shown)	BRAF V600E	cell-free assay, competition with immobilised ligand	1 µM		89%
CC(C)=CC1OC(C)(C)C2C=C3C(=O)C(Cl)=CC(O)C3C3C(O)C4OC4C(=O)C132 (stereo not shown)	BRAF	cell-free assay, competition with immobilised ligand	10 µM		100%
COc1cc(Nc2nccc(-c3cnn4nc(OC)ccc34)n2)cc(C(F)(F)F)c1	BRAF V600E	binding	1 µM		100%
CCN1CCN(Cc2ccc(NC(=O)c3ccc(C)c(NC(=O)c4cncc(-c5cccs5)c4)c3)cc2C(F)(F)F)CC1	BRAF V600E	binding, competition with immobilised ligand	1 µM		15%
CN1CCN(Cc2ccc(NC(=O)c3cccc(C#Cc4cnc(N)c5ncccc45)c3)cc2C(F)(F)F)CC1	BRAF	cell-free assay, competition with immobilised ligand	0.5 µM		0.5%
CC(=O)N1c2ccc(-c3ccc(CNC(=O)c4cn5cc(-c6cnc(N)nc6)nc(N6CCOCC6)c5n4)cc3)cc2CC[C@@H]1C	BRAF	KINOMEscan	10 µM		33%
CNC1C[S+]2CC[S+]3CC[S+](C1)[Ru-4]321([N]=C=S)[n]2c3ccc(OC)cc3c3c4c(c5cc(F)c[n+]1c5c32)C(=O)NC4=O (stereo not shown)	BRAF	KinomeScan	0.1 µM	reference: untreated	100%
CNC(=O)C1CCN(c2cc(C)c(F)cc2NC(=O)c2ccc(-c3cc(O)ccc3C)c(C)c2)CC1	BRAF V600E	binding, competition with immobilised ligand	1 µM		100%
C=CC(=O)N1CCc2ccc(-n3c(=O)ccc4cnc5ccc(-c6cnn(C)c6)cc5c43)cc21	BRAF V600E	KINOMEscan	1 µM	reference: DMSO control	100%
CCN1CCN(Cc2ccc(C(=O)Nc3ccc(C)c(NCc4cnc5[nH]ccc5c4OC)c3)cc2C(F)(F)F)CC1	BRAF	binding, competition with immobilised ligand	1 µM		11%
Cc1cnc2nc1Nc1cccc(c1)COC/C=C/COCc1cc(ccc1OCCN1CCOCC1)N2	BRAF	binding	0.1 µM		96%
COc1c(Cl)cccc1Nc1c(-c2ccncc2C#C[C@@]2(C)CCCN2C(=O)/C=C/CN(C)C)[nH]c2c1C(=O)NCC2	BRAF V600E	cell-free assay, competition with immobilised ligand	3 µM		5.7%
COc1ccc(NC(=O)Nc2ccc3c(c2)C(=O)N(C(C)CO)CC(C)C(CN(C)Cc2ccc4c(c2)OCO4)O3)cc1 (stereo not shown)	BRAF V600E	binding, competition with immobilised ligand	10 µM		65%
CNS(=O)(=O)Nc1nccc(Cc2c(C)c3ccc(Oc4ncccc4F)cc3oc2=O)c1F	BRAF V600E	cell-free assay, competition with immobilised ligand	10 µM		85%
